Assay results pooled from the literature.
Each numbered part is a random draw from the data of one study; scales do not carry over between parts.

Study 1 — technique: protein-binding microarray; form: double-stranded DNA, one strand shown; sample: in vitro; concentration: 250 nM; setting: 60-bp whole probe; together with: salmon DNA 0.4 mg/ml; baseline: random background probes; direction: higher = stronger binding; quantity: log fluorescence
Target: Interferon regulatory factor 7, full length, phosphomimetic (IRF7, Homo sapiens, UniProt Q92985, residues 1-503, S101K/S471D/S472D/S475D/S476D/S477D/S483D/S484D/S487D)
Shared flanks, not repeated: GCCTAGCAC … GTGCTAGGTCTTGATTCGCTTGACGCTGCTG
Construct (chain): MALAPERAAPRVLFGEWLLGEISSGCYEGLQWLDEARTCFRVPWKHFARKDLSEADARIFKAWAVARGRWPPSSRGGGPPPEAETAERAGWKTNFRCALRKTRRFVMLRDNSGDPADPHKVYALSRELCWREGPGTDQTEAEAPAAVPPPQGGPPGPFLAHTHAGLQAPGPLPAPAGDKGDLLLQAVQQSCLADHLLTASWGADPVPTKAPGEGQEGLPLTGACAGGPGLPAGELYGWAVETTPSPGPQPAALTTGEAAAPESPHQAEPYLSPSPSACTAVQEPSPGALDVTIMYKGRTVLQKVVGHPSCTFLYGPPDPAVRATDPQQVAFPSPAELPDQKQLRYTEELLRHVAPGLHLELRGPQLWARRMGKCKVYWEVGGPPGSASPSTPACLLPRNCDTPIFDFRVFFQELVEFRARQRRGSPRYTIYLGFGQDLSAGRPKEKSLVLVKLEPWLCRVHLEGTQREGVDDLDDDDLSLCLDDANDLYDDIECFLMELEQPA
TGTAATGATGTAGGCAAATG: -0.343 z-score
GACGGTATGGGACTGGGGAC: -0.367 z-score
GACGGTTTCCTTTCCCTCAC: 4.66 z-score
CTGTACATCTATGTAGAAAG: 0.43 z-score
TTAGGTTTCCTTTTCTTTTA: 6.29 z-score
GCCGAACTGAGTTTCGAGAC: 3.52 z-score
TTAGATTTAAGACTGGATTA: 0.0318 z-score
GACGGTATCGTTATCCTGAC: 1.77 z-score

Study 2 — cell line: HEK-293T/ACE2; concentration: concentration not given; time: 16 (unit not given); baseline: vehicle; quantity: viability
N[C@@H]1CON=C1O: 100%
CC(C(=O)O)c1ccc(-c2ccccc2)c(F)c1 (stereo not drawn): 103%
O=C1CCCC(=O)C1C(=O)c1ccc(C(F)(F)F)cc1[N+](=O)[O-]: 101%
C[C@@H]1O[C@@H]1P(=O)(O)O: 106%
CCOC(=O)O[C@]1(C(=O)OCCl)CC[C@H]2[C@@H]3CCC4=CC(=O)C=C[C@]4(C)[C@H]3[C@@H](O)C[C@@]21C: 107%
C[C@@](Cc1ccc(O)c(O)c1)(NN)C(=O)O: 106%
COc1ccnc(C[S+]([O-])c2nc3ccc(OC(F)F)cc3[nH]2)c1OC (stereo not drawn): 104%

Study 3 — technique: RNA Bind-n-Seq; form: RNA; sample: in vitro; concentration: 365 nM; baseline: no-protein control; direction: higher = stronger binding; quantity: RBNS enrichment (R)
Target: RNA binding protein fox-1 homolog 2, RRM domain, GST-SBP tag (RBFOX2, Homo sapiens, UniProt O43251-10, residues 100-194)
Setting: natural RNA segment, single round, ends assumed
Shared flanks, not repeated: GGGAGUUCUACAGUCCGACGAUC … UGGAAUUCUCGGGUGCCAA
Construct (chain): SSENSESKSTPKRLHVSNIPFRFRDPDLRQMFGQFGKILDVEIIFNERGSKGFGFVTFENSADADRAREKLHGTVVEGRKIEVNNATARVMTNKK
UACAUCAUCACAGUAGAAUUUAUUAUGAGAGCAUGUAGUAUGUAUCUGUAGCCCUAACACAUGGGAUGAACGUUUUACUGCUACACCCAGAUUUGUGUUGAACGAAAACA: 0.678
CCUCCCCCCAGUUGCCCCUCAGUCGAAGCACUGUGCCAUGUCCUGCUGGGAAUUUUCUGCCAUGCAGGCAAGACCAUCAGCACCGAGAACCCCAAACCUGUUUUGUACUU: 0.411
UUACUUCUGGCUGGUGACAGUAAAGCUGGAAAAUUAAUUUCAGGGUUUUUUGAGGCUUUUGACACAGUUAUUAGUUAAAUCAAAUGUUCAAAAAUACGGAGCAGUGCCUA: 0.629
CCCUGGAACUCCAGCGUAACCUGCCUUAGUGUUCCUUGUGUUGUCUGCUUUGAUGUAAAACCACAGGUGUGUCGAGGCAGAGGCUGCAGUCCUCUGUGCGCACAGUAGGC: 0.385
GCUGCUAAAUCUCCUAUUUUUUUAAAAUCACUAACAUUAUAUUGCAAUGAAGGAAAUAAAAAAGUCUCUAUUUAAAUUCUUUUUUAAAUUUUCUUCAGUUGGUGUGUUUU: 1.51
GUCACACUGGAAAUUGUACAUUUUUUUAAAGAAAAGGUAUAGUUUUAUAACUGAGAUGUACCUAAAUUAUGACCAUUUGGUUUAUGAAUAUUCUACUGUGACAUGAAAAG: 0.473
GGUUCUCCAGGACCUUAGGUUUGAUGCGGAAUCUGCCGAGUGAUGGCGGCUCCCCAGGGAUGCGCCGAGGGAGAUGGGAAACGGGGCGGAUGGCGCCCAGCCCAGCCCUA: 2.55
GCCAAGAACUCUUGGUUAUCCGCACAAGCUGCUGGUAGACUACAUUAGCCCUCUGGUUUUCCAGCUCAACCUCUGAUAAAGUGGACUGAGAGCCACGCUGCUCAGUCUGU: 0.329

Study 4 — mode: inhibitor; concentration: 20 µM; quantity: inhibition
Target: Replicase polyprotein 1ab, nsp13 helicase (rep, Severe acute respiratory syndrome coronavirus 2, UniProt P0DTD1)
O=C(O)Cc1nn(Cc2nc3cc(C(F)(F)F)ccc3s2)c(=O)c2ccccc12: 2.29%
CC(C)=CCC/C(C)=C/CC/C(C)=C/C=C/C(C)=C/C(=O)O: 20.5%
Clc1cccc(-c2nnnn2Cc2cccnc2)c1Cl: -0.77%
CC(=O)CC/C=C(\C)CC/C=C(\C)CC/C=C(\C)CCC=C(C)C: 3.94%
CC(C)C[C@H](NC(=O)CNC(=O)[C@H](Cc1ccc(O)cc1)NC(=O)[C@H](CO)NC(=O)[C@H](Cc1c[nH]c2ccccc12)NC(=O)[C@H](Cc1cnc[nH]1)NC(=O)[C@@H]1CCC(=O)N1)C(=O)N[C@@H](CCCNC(=N)N)C(=O)N1CCC[C@H]1C(=O)NCC(N)=O: 6.57%
CC(=O)[C@H]1CC[C@H]2[C@@H]3CC[C@H]4C[C@H](O)CC[C@]4(C)[C@H]3C(=O)C[C@]12C: 6.98%
C[C@H](N)[C@H](O)c1ccc(O)c(O)c1: 32.6%
O=C(O)C1CCCN(CCC=C(c2ccccc2)c2ccccc2)C1 (stereo not drawn): 2.62%
Nc1cc(-c2ccncc2)c[nH]c1=O: 62.4%
Cn1cc(C(=O)C(=O)NC2CN3CCC2CC3)c2ccccc21 (stereo not drawn): 8.94%
CC(=O)[C@H]1CC[C@H]2[C@@H]3CC=C4C[C@@H](OC(=O)CCC(=O)O)CC[C@]4(C)[C@H]3CC[C@]12C: 3.58%
COc1ccc(OC)c(C2C(C#N)=C(N)Oc3n[nH]c(-c4ccc5ccccc5c4)c32)c1 (stereo not drawn): -3.2%
O=C(O)[C@@H](S)[C@@H](S)C(=O)O: 99.9%
CN1CCc2cc(Cl)c(O)cc2[C@@H](c2ccccc2)C1: 0.53%
CCCN(CCC)CCc1ccc(OC)c(OCCc2ccccc2)c1: 2.44%
N[C@@H](CSCCCO)C(=O)O: 9.45%
O=C(OCCN1CCOCC1)c1cccnc1Nc1cccc(C(F)(F)F)c1: 3.09%
CC1(C)C(=O)N(c2ccc(C#N)c(C(F)(F)F)c2)C(=O)N1CCCCO: -0.67%
O=C(/C=C/c1ccccc1)NC(NC(=S)Nc1cccc2cccnc12)C(Cl)(Cl)Cl (stereo not drawn): -5.09%
Cc1ccc(C(=O)c2ccc(CC(=O)O)n2C)cc1: 5.89%
CCNC(=O)C[C@@H]1N=C(c2ccc(Cl)cc2)c2cc(OC)ccc2-n2c(C)nnc21: -2.23%
NS(=O)(=O)c1cc2c(cc1Cl)NC(CC1CCCC1)NS2(=O)=O (stereo not drawn): 3.05%
O=C(CCCCCCCC(=O)NCCO)NCCO: 0%
N[C@@H]1CCN(c2cccnc2)C1: -7.36%
Cc1sc2c(c1C)C(c1ccc(Cl)cc1)=N[C@@H](CC(=O)Nc1ccc(OCCOCCOCCOCCNc3cccc4c3C(=O)N(C3CCC(=O)NC3=O)C4=O)cc1)c1nnc(C)n1-2 (stereo partly drawn): 7.45%

Further values, each from its own experiment — read-out: enzyme activity; concentration: 20 µM
Target: Replicase polyprotein 1ab, main protease (rep, Severe acute respiratory syndrome coronavirus 2, UniProt P0DTD1)
S=C=Nc1cccc(NC(=S)NCCCCNC(=S)Nc2cccc(N=C=S)c2)c1
inhibition (with DTT): 92%

COc1ccc2[n-]c([S@@+]([O-])Cc3ncc(C)c(OC)c3C)nc2c1.COc1ccc2[n-]c([S@@+]([O-])Cc3ncc(C)c(OC)c3C)nc2c1.O.O.O.[Mg+2]
inhibition (inhibitor; hit confirmation, no DTT): 99.7%

C=CCN1CCc2cc(O)c(O)cc2C(c2ccccc2)C1 (stereo not drawn)
inhibition (with DTT): 4%

A few entries again (study 4):
O=C(OCCN1CCOCC1)c1cccnc1Nc1cccc(C(F)(F)F)c1: 3.09%
CC1(C)C(=O)N(c2ccc(C#N)c(C(F)(F)F)c2)C(=O)N1CCCCO: -0.67%
O=C(/C=C/c1ccccc1)NC(NC(=S)Nc1cccc2cccnc12)C(Cl)(Cl)Cl (stereo not drawn): -5.09%
Cc1ccc(C(=O)c2ccc(CC(=O)O)n2C)cc1: 5.89%
